Experimental data of several laboratories.
Each line is one published result; not all experiments were run side by side.
Target: Kappa-type opioid receptor (OPRK1, Homo sapiens, UniProt P41145)

Oc1cccc(CCN(CCc2ccccc2)CC2CCCC2)c1
Ki (cell-free assay): 0.23 nM

NCc1ccc2[nH]c3c(c2c1)CC1(O)C2Cc4ccc(O)c5c4C1(CCN2CC1CC1)C3O5 (stereo not shown)
Ki (ligand displacement, radioligand; cell membranes): 1.36 nM

CC1(C)SCCSC[C@@H](NC(=O)[C@@H](N)Cc2ccc(O)cc2)C(=O)N[C@@H](Cc2ccccc2)C(=O)N[C@H]1C(N)=O
Ki (ligand displacement, radioligand; cell membranes): 9540 nM

Cc1cc(O)cc(C)c1CC(N)C(=O)NC1CCNc2c(Br)cc(Cc3ccccc3)cc21 (stereo not shown)
Ki (ligand displacement, radioligand; cell membranes): 13 nM

Cc1cc(O)cc(C)c1CC(N)C(=O)NC1CCNc2ccc(CN3CCOCC3)cc21 (stereo not shown)
Ki (ligand displacement, radioligand; cell membranes): 170 nM

C[C@@H](CN1CCC(Cc2ccccc2)CC1)[C@@H](O)c1ccc(O)cc1
Ki (cell-free assay): 3100 nM

Cc1cc(O)cc(C)c1CC(N)C(=O)NC1CCNc2ccc(CN3CCC4CCCCC4C3)cc21 (stereo not shown)
Ki (ligand displacement, radioligand; cell membranes): 37 nM

Cc1cc(O)cc(C)c1CC(N)C(=O)NC1CCNc2c(CN3CCOCC3)cc(Cc3ccccc3)cc21 (stereo not shown)
Ki (ligand displacement, radioligand; cell membranes): 7.3 nM

OC1(c2ccc(Cl)cc2)CCN(Cc2cccc(F)c2)CC1
Ki (binding): 1000 nM

CC(=O)N1CCC(NC(=O)C(N)Cc2c(C)cc(O)cc2C)c2cc(CN3CCC4CCCCC4C3)ccc21 (stereo not shown)
Ki (ligand displacement, radioligand; cell membranes): 15 nM

CC(C)C[C@H](NC(=O)[C@H](Cc1ccc2ccccc2c1)NC(=O)CNC(=O)[C@H](NC(=O)[C@@H](N)Cc1ccc(O)cc1)[C@H](C)O)C(=O)N[C@@H](CO)C(N)=O
Ki (ligand displacement, radioligand; pH 7.4, cell membranes): 125 nM

Cc1cc(O)cc(C)c1CC(N)C(=O)NC1CCNc2c(CCc3ccccc3)cc(Cc3ccccc3)cc21 (stereo not shown)
Ki (ligand displacement, radioligand; cell membranes): 27 nM

CC(C)C[C@H](NC(=O)[C@H](Cc1ccc2ccccc2c1)NC(=O)CNC(=O)[C@H](NC(=O)[C@@H](N)Cc1ccc(O)cc1)[C@H](C)O)C(=O)N[C@@H](CO[C@@H]1O[C@H](CO)[C@@H](O)[C@H](O)[C@H]1O)C(N)=O
Ki (ligand displacement, radioligand; pH 7.4, cell membranes): 130 nM

CC(C)[C@H]1CC[C@@H](N2CC[C@@](C)(c3cccc(O)c3)[C@@H](C)C2)CC1
Ki (ligand displacement, radioligand): 51.1 nM

Cc1cc(O)cc(C)c1CC(N)C(=O)NC1CCNc2c(CN3CCCCC3)cc(Cc3ccccc3)cc21 (stereo not shown)
Ki (ligand displacement, radioligand; cell membranes): 0.93 nM

Cc1cc(O)cc(C)c1CC(N)C(=O)NC1CCNc2ccc(Cc3ccc4c(c3)OCO4)cc21 (stereo not shown)
Ki (ligand displacement, radioligand; cell membranes): 21 nM

CCOC(=O)c1cc(Cc2ccccc2)cc2c1NCCC2NC(=O)C(N)Cc1c(C)cc(O)cc1C (stereo not shown)
Ki (ligand displacement, radioligand; cell membranes): 47 nM

CC(C)C[C@H](NC(=O)[C@H](Cc1cccc2ccccc12)NC(=O)CNC(=O)[C@H](NC(=O)[C@@H](N)Cc1ccc(O)cc1)[C@H](C)O)C(=O)N[C@@H](CO)C(N)=O
Ki (ligand displacement, radioligand; pH 7.4, cell membranes): 25 nM

Cc1cc(O)cc(C)c1CC(N)C(=O)NC1CCNc2ccc(Cc3ccc4ncccc4c3)cc21 (stereo not shown)
Ki (ligand displacement, radioligand; cell membranes): 120 nM

Repeated from above:
CC1(C)SCCSC[C@@H](NC(=O)[C@@H](N)Cc2ccc(O)cc2)C(=O)N[C@@H](Cc2ccccc2)C(=O)N[C@H]1C(N)=O
Ki (ligand displacement, radioligand; cell membranes): 9540 nM

Cc1cc(O)cc(C)c1CC(N)C(=O)NC1CCNc2c(Br)cc(Cc3ccccc3)cc21 (stereo not shown)
Ki (ligand displacement, radioligand; cell membranes): 13 nM
